Published values from different studies.
± marks the error that the study gave.

N=C(N)NCCC[C@@H]1NC(=O)[C@H](CCCCNC(=O)CNC(=O)CNC(=O)CNC(=O)CC[C@H](NC(=O)CCOCCOCCOCCOCCNC(=O)CC[C@H](NC(=O)CN2CCN(CC(=O)O)CCN(CC(=O)O)CCN(CC(=O)O)CC2)C(=O)NCCOCCOCCOCCOCCC(=O)N[C@@H](CCC(=O)NCC(=O)NCC(=O)NCC(=O)NCCCC[C@@H]2NC(=O)[C@@H](Cc3ccccc3)NC(=O)[C@H](CC(=O)O)NC(=O)CNC(=O)[C@H](CCCNC(=N)N)NC2=O)C(=O)NCC(=O)NCC(=O)NCC(=O)NCCCC[C@@H]2NC(=O)[C@@H](Cc3ccccc3)NC(=O)[C@H](CC(=O)O)NC(=O)CNC(=O)[C@H](CCCNC(=N)N)NC2=O)C(=O)NCC(=O)NCC(=O)NCC(=O)NCCCC[C@@H]2NC(=O)[C@@H](Cc3ccccc3)NC(=O)[C@H](CC(=O)O)NC(=O)CNC(=O)[C@H](CCCNC(=N)N)NC2=O)NC(=O)[C@@H](Cc2ccccc2)NC(=O)[C@H](CC(=O)O)NC(=O)CNC1=O [indium-111 labelled] — tissue uptake (female athymic nude mice, heart; intravenous, 3 µCi, 0.5 h, U-87 MG glioma xenograft): 1.79 ± 0.31 %ID/g
N=C(N)NCCC[C@H](NC(=O)[C@H](CCCCN)NC(=O)[C@H](CCC(N)=O)NC(=O)CCOCCOCCOCCNC(=O)CN1CCN(CC(=O)O)CCN(CC(=O)O)CCN(CC(=O)O)CC1)C(=O)N[C@@H](CCCCN)C(=O)N[C@@H](CCCNC(=N)N)C(=O)N[C@@H](CCCCN)C(=O)N[C@@H](CCCCN)C(=O)N[C@@H](CO)C(=O)N[C@@H](CCCNC(=N)N)C(=O)N[C@@H](Cc1ccc(O)cc1)C(=O)N[C@@H](CCCCN)C(=O)N[C@@H](CO)C(=O)O [copper-64 labelled] — tissue uptake (male C57BL/6 mice, B16-F10 tumour, stomach; intravenous, 60 min): 0.97 ± 0.1 %ID/g
N=C(N)NCCC[C@@H]1NC(=O)[C@H](CCCCNC(=O)CC[C@H](NC(=O)CCOCCOCCOCCOCCNC(=O)CN2CCN(CC(=O)O)CCN(CC(=O)O)CCN(CC(=O)O)CC2)C(=O)NCCCC[C@@H]2NC(=O)[C@@H](Cc3ccccc3)NC(=O)[C@H](CC(=O)O)NC(=O)CNC(=O)[C@H](CCCNC(=N)N)NC2=O)NC(=O)[C@@H](Cc2ccccc2)NC(=O)[C@H](CC(=O)O)NC(=O)CNC1=O [indium-111 labelled] — tissue uptake (female athymic nude mice, muscle; intravenous, 3 µCi, 1 h, U-87 MG glioma xenograft): 0.8 ± 0.24 %ID/g
N=C(N)NCCC[C@@H]1NC(=O)[C@H](CCCCNC(=O)CCOCCOCCOCCOCCNC(=O)CC[C@H](NC(=O)CCOCCOCCOCCOCCNC(=O)[C@H](CCCCNC(=O)c2ccc(NN)nc2)NC(=O)c2ccc(NN)nc2)C(=O)NCCOCCOCCOCCOCCC(=O)NCCCC[C@@H]2NC(=O)[C@@H](Cc3ccccc3)NC(=O)[C@H](CC(=O)O)NC(=O)CNC(=O)[C@H](CCCNC(=N)N)NC2=O)NC(=O)[C@@H](Cc2ccccc2)NC(=O)[C@H](CC(=O)O)NC(=O)CNC1=O [technetium-99m labelled] — tissue uptake (athymic nude mice, tumour; intravenous, 60 min, blocking, with: excess RGD2 14 mg/kg co-injected): 1.81 ± 0.56 %ID/g
N=C(N)NCCC[C@@H]1NC(=O)[C@H](CCCCNC(=O)CCOCCOCCOCCOCCNC(=O)CN2CCN(CC(=O)O)CCN(CC(=O)O)CCN(CC(=O)O)CC2)NC(=O)[C@@H](Cc2ccccc2)NC(=O)[C@H](CC(=O)O)NC(=O)CNC1=O [indium-111 labelled] — tissue uptake (female athymic nude mice, eyes; intravenous, 3 µCi, 1 h, U-87 MG glioma xenograft): 0.48 ± 0.2 %ID/g
N=C(N)NCCC[C@@H]1NC(=O)[C@H](CCCCNC(=O)CNC(=O)CNC(=O)CNC(=O)CC[C@H](NC(=O)CNC(=O)CNC(=O)CNC(=O)[C@H](CCCCNC(=O)c2ccc(NN)nc2)NC(=O)c2ccc(NN)nc2)C(=O)NCC(=O)NCC(=O)NCC(=O)NCCCC[C@@H]2NC(=O)[C@@H](Cc3ccccc3)NC(=O)[C@H](CC(=O)O)NC(=O)CNC(=O)[C@H](CCCNC(=N)N)NC2=O)NC(=O)[C@@H](Cc2ccccc2)NC(=O)[C@H](CC(=O)O)NC(=O)CNC1=O [technetium-99m labelled] — tissue uptake (female athymic nude mice, spleen; intravenous, 0.1 MBq, 1 h, U-87 MG glioma xenograft): 1.74 ± 0.98 %ID/g
CSCC[C@H](NC(=O)[C@H](CC(C)C)NC(=O)[C@H](Cc1c[nH]cn1)NC(=O)CNC(=O)[C@@H](NC(=O)[C@H](C)NC(=O)[C@H](Cc1c[nH]c2ccccc12)NC(=O)[C@H](CCC(N)=O)NC(=O)CCCCCCCNC(=O)CCC(=O)Nc1ccc(CNC23CNCCNCC(N)(CNCCNC2)CNCCNC3)cc1)C(C)C)C(N)=O [copper-64 labelled] — tissue uptake (female SCID mice, PC-3 xenograft, pancreas; intravenous, 0.6 MBq, 1 h): 67.4 ± 4.57 %ID/g
CC(C)C[C@H](NC(=O)[C@H](Cc1ccc(O)cc1)NC(=O)[C@@H](CCCNC(=N)N)NC(=O)[C@@H](CO)NC(=O)[C@H](Cc1ccccc1)NC(=O)[C@H](CC1CCCCC1)NC(=O)[C@H](CC(=O)O)NC(=O)CCC(C(=O)O)N1CCCN2CCN(CCCN(CC(=O)O)CC2)CC1)C(=O)N[C@@H](Cc1c[nH]c2ccccc12)C(=O)N[C@@H](CO)C(=O)O (stereo partly shown) [copper-64 labelled] — tissue uptake (female NMRI nude mice, heart; 22 h p.i.): 0.6 ± 0.1 %ID/g
N=C(N)NCCC[C@@H]1NC(=O)[C@H](CCCCNC(=O)CC[C@H](NC(=O)[C@H](CCCCNC(=O)c2ccc(NN)nc2)NC(=O)c2ccc(NN)nc2)C(=O)NCCCC[C@@H]2NC(=O)[C@@H](Cc3ccccc3)NC(=O)[C@H](CC(=O)O)NC(=O)CNC(=O)[C@H](CCCNC(=N)N)NC2=O)NC(=O)[C@@H](Cc2ccccc2)NC(=O)[C@H](CC(=O)O)NC(=O)CNC1=O [technetium-99m labelled] — tissue uptake (female athymic nude mice, spleen; intravenous, 0.1 MBq, 1 h, U-87 MG glioma xenograft): 1.57 ± 0.17 %ID/g
CSCC[C@H](NC(=O)[C@H](CC(C)C)NC(=O)[C@H](Cc1c[nH]cn1)NC(=O)CNC(=O)[C@@H](NC(=O)[C@H](C)NC(=O)[C@H](Cc1c[nH]c2ccccc12)NC(=O)[C@H](CCC(N)=O)NC(=O)CNC(=O)[C@H](CO)NC(=O)CNC(=O)CCCCCCCNC(=O)CCC(=O)Nc1ccc(CNC23CNCCNCC(N)(CNCCNC2)CNCCNC3)cc1)C(C)C)C(N)=O [copper-64 labelled] — tissue uptake (female SCID mice, PC-3 xenograft, muscle; intravenous, 0.6 MBq, 4 h): 0.093 ± 0.003 %ID/g

Repeated from above:
N=C(N)NCCC[C@@H]1NC(=O)[C@H](CCCCNC(=O)CCOCCOCCOCCOCCNC(=O)CN2CCN(CC(=O)O)CCN(CC(=O)O)CCN(CC(=O)O)CC2)NC(=O)[C@@H](Cc2ccccc2)NC(=O)[C@H](CC(=O)O)NC(=O)CNC1=O [indium-111 labelled] — tissue uptake (female athymic nude mice, eyes; intravenous, 3 µCi, 1 h, U-87 MG glioma xenograft): 0.48 ± 0.2 %ID/g
